Measured values pooled from the literature.
Numbered parts are unrelated; each lists some results of a single study. Positions count from the first letter of the parent shown.

Set 1 — target: CCNA1, cyclin fold, Cln2 fusion (human); method: yeast growth competition, sequencing; matrix: yeast; notes: weak parent motif; relative to: not given; reading: higher = stronger binding; measurement: normalised enrichment score
Starting sequence: CDC42EP1 docking peptide (human); SLVVGKLSFDSSP
P13A: -0.464
S1A: -0.168
S12A: -0.214
V3A: -0.553
G5A: -0.209
S8A: -0.527
D10A: -0.319

Set 2 — method: competition protein-binding microarray; form: double-stranded DNA, one strand shown; matrix: in vitro; concentration: 2 µM; together with: Pho4 competitor, 0.05 µM; reading: higher = stronger binding; measurement: fluorescence intensity; constant ends, left off below: … GTCTTGATTCGCTTGACGCTGCTG
Target: Centromere-binding protein 1, full length, His-tagged (CBF1, Saccharomyces cerevisiae, UniProt P17106, residues 1-351)
UniProt P17106, sequence (whole entry, looked up): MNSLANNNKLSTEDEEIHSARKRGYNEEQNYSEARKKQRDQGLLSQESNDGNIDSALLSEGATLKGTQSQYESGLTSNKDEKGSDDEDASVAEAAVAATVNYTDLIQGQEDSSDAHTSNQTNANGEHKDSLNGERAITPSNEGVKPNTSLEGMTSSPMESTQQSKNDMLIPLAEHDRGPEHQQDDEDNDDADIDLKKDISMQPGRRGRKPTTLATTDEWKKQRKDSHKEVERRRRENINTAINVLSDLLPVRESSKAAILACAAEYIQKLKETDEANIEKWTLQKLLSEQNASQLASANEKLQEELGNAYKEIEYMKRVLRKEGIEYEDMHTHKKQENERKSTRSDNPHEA
Notes: whole 60-bp probe, lowest competitor level
AGAACACAGTTTCGGCACGTGGAAGGTGTTTGGGAC: 1110 a.u.
CTTCTGTAAATTTGTCCGGTGGGTGGACGCGCCCCG: 85.2 a.u.
CTCAAGCTTATGGTTCACGTTATAGAACACAGGAGA: 109 a.u.
CCCCGAAATTGAGTGCACATGCTCGCAAGATAATAT: 302 a.u.
CTTCATTTTGGGTGGCACATGGCAAAGCAATGTCGA: 166 a.u.
TCCTTCTACAATCCTTTCGTGACGAATATTGAATCA: 102 a.u.
AGGATAATCAGCTCTGTCGTGACGGATAAATGCTAT: 146 a.u.
CGGATGCTGTTACTACACGTGAACCATCCGGAGAGT: 668 a.u.
CAAGATCTTTGGCAAAACGTGGACCCCAACTTCGAA: 107 a.u.
AAATTACTAAGTTGATTCGTGGGTGACGCCGTATGA: 84.4 a.u.
CTTCTGTAAATTTGCCTAGTGGGTGGACGCGCCCCG: 75.5 a.u.
TTTTTCTCGAACGGCCACGTTTGCGTTGTTACATGA: 79.5 a.u.
GAATGAGTTACTGGTCCCGTGAAGCGATTGACACAA: 303 a.u.
GGAAAACCGCCCCATCACGCTGACCCCTTTGGCCCG: 101 a.u.
TACCTTAACCCCGGCACCGTGCGATGCAGATCCGCC: 51.2 a.u.
TTGCTTTATCGAAAATCCGTGATGGCGGTCCTTCAG: 72.3 a.u.

Set 3 — method: aptamer microarray, sandwich; form: DNA with 2'F-ANA; matrix: in vitro; concentration: 200 nM; together with: Cy3 exosite-II aptamer, 400 nM; reading: higher = stronger binding; measurement: mean fluorescence intensity; strand: GGTTGGTGTGGTTGG
Target: Prothrombin, mature alpha-thrombin (F2, Homo sapiens, UniProt P00734)
Notes: whole 15-mer aptamer, many near background
2'F-ANA at 1 2 3 4 5 8 9 10 12 13: 46.5 a.u.
2'F-ANA at 2 3 4 7 9 10 11 13 15: 225 a.u.
2'F-ANA at 1 3 4 5 7 8 9 10 15: 48.2 a.u.
2'F-ANA at 1 3 7 8 10 12 14 15: 69.7 a.u.
2'F-ANA at 3 5 7 9 14 15: 59 a.u.
2'F-ANA at 7 8 11 12 14 15: 278 a.u.
2'F-ANA at 1 3 4 5 8 10 13 14: 45.8 a.u.
2'F-ANA at 2 5 7 9 11 12: 142 a.u.
2'F-ANA at 1 2 6 8 11 13 15: 138 a.u.
2'F-ANA at 1 2 3 4 5 6 8 10 12 15: 57.4 a.u.
2'F-ANA at 1 5 7 8 9 10 12: 49.1 a.u.
2'F-ANA at 4 6 12 13 15: 370 a.u.
2'F-ANA at 1 2 3 5 7 8 13: 55.5 a.u.
2'F-ANA at 2 4 6 7 8 9 10 11 12 13 14 15: 62.3 a.u.
2'F-ANA at 1 2 7 8 10 11 13 15: 50.9 a.u.
2'F-ANA at 2 4 9 10 13 14 15: 59.1 a.u.
2'F-ANA at 1 4 6 8 10 11 12 13 14 15: 51.3 a.u.
2'F-ANA at 1 4 5 7 8 11 13: 64.2 a.u.
2'F-ANA at 1 2 5 7 10 12 13 14 15: 49.7 a.u.
2'F-ANA at 2 3 7 9 12: 1030 a.u.
2'F-ANA at 3 8 9 14: 698 a.u.
2'F-ANA at 1 4 5 7 8 9 14 15: 121 a.u.
2'F-ANA at 4 5 6 8 11 12: 118 a.u.

Set 4 — target: CREB3L3, bZIP domain (human); method: DHFR protein complementation; matrix: yeast; relative to: wild-type JUN-FOS pair; reading: higher = stronger binding; measurement: binding fitness
Notes: single substitutions, most at no-binding floor
Starting sequence: JUN, bZIP domain (human); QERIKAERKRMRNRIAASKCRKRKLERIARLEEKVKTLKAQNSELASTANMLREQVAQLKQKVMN; partner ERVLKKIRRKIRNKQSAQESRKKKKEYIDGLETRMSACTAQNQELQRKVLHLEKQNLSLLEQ
M51R: -1.42 natural log
N42A: -1.38 natural log
L38F: -1.51 natural log
Q41R: -1.54 natural log
R53L: -1.49 natural log
V56K: -1.39 natural log
K34R: -1.45 natural log
R30A: -1.41 natural log
K39V: -1.49 natural log
A29Y: -1.5 natural log
L31K: -1.46 natural log
Q55Y: -1.45 natural log
E54K: -1.54 natural log
A57C: -1.27 natural log
S43M: -1.45 natural log
N42K: -1.41 natural log
S43W: -1.4 natural log
L52E: -1.36 natural log

Set 5 — target: CEP164, C-terminal peptide (human); method: DHFR complementation, deep sequencing; matrix: yeast; relative to: wild type; reading: higher = weaker binding; measurement: binding free energy change
Notes: single substitutions, model-inferred values
Starting sequence: PDZK1, PDZ domain 2 (human); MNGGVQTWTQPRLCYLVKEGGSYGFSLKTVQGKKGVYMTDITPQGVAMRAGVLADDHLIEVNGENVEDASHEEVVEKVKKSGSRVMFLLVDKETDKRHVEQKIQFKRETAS; partner HNRVKVYRF
K77L: 0.0324 kcal/mol
E100T: -0.15 kcal/mol
Y37W: 0.314 kcal/mol
E72S: 0.584 kcal/mol
W8S: -0.0364 kcal/mol
N65T: 0.424 kcal/mol
N62P: 0.649 kcal/mol
K79F: 1.09 kcal/mol
T94E: 0.0892 kcal/mol
D56I: 1.26 kcal/mol
M48G: 0.145 kcal/mol
T94V: 0.108 kcal/mol
V85K: 1.98 kcal/mol
K34M: 0.357 kcal/mol
T109Y: -0.13 kcal/mol
V66D: 1.38 kcal/mol
L13A: -0.0628 kcal/mol
M38Y: 1.39 kcal/mol
T109V: -0.148 kcal/mol
D91Q: -0.104 kcal/mol
V36I: -0.0107 kcal/mol
E60D: 0.289 kcal/mol
S111I: 0.0207 kcal/mol
Q10N: 0.0304 kcal/mol
G20T: 0.253 kcal/mol

Other studies, line by line
PhoQ, residues 284 288 289 292 302 303 SVHLDV — fold induction (PhoP, residues 12 14 15 18 19 NQFFI (Escherichia coli, UniProt P23836); Sort-seq, measured: YFP reporter; E. coli; PhoQ-PhoP variant library, together with: 10 µM Mg2+; relative to: high Mg2+ state, higher = stronger signaling): 11.7
